Measurements from different studies.
Numbered parts are unrelated; each lists some results of a single study. Positions count from the first letter of the parent shown.

Sample 1
Target: Interferon regulatory factor 7, full length, phosphomimetic (IRF7, Homo sapiens, UniProt Q92985, residues 1-503, S101K/S471D/S472D/S475D/S476D/S477D/S483D/S484D/S487D)
Method: protein-binding microarray
Molecule type: double-stranded DNA, one strand shown
Matrix: in vitro
Concentration: 250 nM
Setting: 60-bp whole probe
Added: salmon DNA 0.4 mg/ml
Relative to: random background probes
Reading: higher = stronger binding
All sequences stand within: GCCTAGCAC … GTCTTGATTCGCTTGACGCTGCTG
Target sequence (chain): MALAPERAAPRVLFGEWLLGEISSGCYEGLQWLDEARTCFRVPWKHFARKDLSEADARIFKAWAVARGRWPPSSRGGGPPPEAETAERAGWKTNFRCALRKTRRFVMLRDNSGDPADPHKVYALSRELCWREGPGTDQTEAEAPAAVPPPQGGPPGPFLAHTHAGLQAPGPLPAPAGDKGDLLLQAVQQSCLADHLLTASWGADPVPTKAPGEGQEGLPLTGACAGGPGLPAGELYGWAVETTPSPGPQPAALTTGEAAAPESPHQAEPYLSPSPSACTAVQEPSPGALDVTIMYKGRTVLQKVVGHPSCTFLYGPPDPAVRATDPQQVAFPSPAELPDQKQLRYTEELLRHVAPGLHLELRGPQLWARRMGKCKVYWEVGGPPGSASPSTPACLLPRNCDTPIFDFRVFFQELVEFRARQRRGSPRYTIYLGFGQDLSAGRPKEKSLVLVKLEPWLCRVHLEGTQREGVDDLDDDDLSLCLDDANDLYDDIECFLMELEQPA
`GACGATATCGGGACTGGACACGTGCTA` gave a log fluorescence of -0.384 z-score.
For `AAATCATTTTCTCTGTTCTAGTGCTAG`, the log fluorescence was 1.25 z-score.
The log fluorescence of `GACGATCTCAGTTTCGCGACGTGCTAG` is reported as 1.17 z-score.
With `TTAGGTATCGGGTTTCGGTTCGTGCTA` the log fluorescence was 10.1 z-score.
`TTAGGTATCGGGCATCGGTTAGTGCTA` has a log fluorescence of -0.193 z-score.
For `GACGGTATCGACTATCCGGACGTGCTA`, the log fluorescence was 0.279 z-score.
`GACGGTCCCCTTATCCTGACGTGCTAG` gave a log fluorescence of 0.157 z-score.
For `TTAGGTTTCCTACTGCTGTAGTGCTAG`, the log fluorescence was 1.51 z-score.
`TTGTTTTTCATCATTGCCTAGTGCTAG` has a log fluorescence of 1.54 z-score.
With `TTAGGTATCGACACTGGATTAGTGCTA` the log fluorescence was 0.133 z-score.
`GTAGGTTCCGGTTTCGGTTAGTGCTAG` gave a log fluorescence of 10.7 z-score.
`TCATGTTTTTCATTGTTACTGTGCTAG` gave a log fluorescence of 1.32 z-score.
For `TTAGGTATCCTTTTCGTTTAGTGCTAG`, the log fluorescence was 2.7 z-score.
The log fluorescence of `TCACATTTTTTTATCAAACTGTGCTAG` is reported as 0.993 z-score.
`TTAGGTATCGGTTTCGGGTAGTGCTAG` gave a log fluorescence of 7.8 z-score.
`TTAGCACTGCTACTGCTTTAGTGCTAG` gave a log fluorescence of -0.545 z-score.
With `TCAAAATTATCTTTAATACTGTGCTAG` the log fluorescence was -0.0239 z-score.

Sample 2
Target: XBP1, bZIP domain (human)
Method: DHFR protein complementation
Matrix: yeast
Setting: single substitutions, most at no-binding floor
Relative to: wild-type JUN-FOS pair
Reading: higher = stronger binding
Parent: JUN, bZIP domain (human); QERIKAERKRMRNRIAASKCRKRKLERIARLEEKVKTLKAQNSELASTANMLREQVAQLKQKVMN; partner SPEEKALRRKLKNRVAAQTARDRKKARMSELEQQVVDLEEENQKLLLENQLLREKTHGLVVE
`L45Q` gave a binding fitness of -1.51 natural log.
The binding fitness of `A29G` is reported as -1.21 natural log.
`S43D` gave a binding fitness of -0.702 natural log.
`A29C` has a binding fitness of -1.23 natural log.
`S47N` has a binding fitness of -0.554 natural log.
`E33M` gave a binding fitness of -1.14 natural log.
`A40N` gave a binding fitness of -1.18 natural log.
`N42M` gave a binding fitness of -1.32 natural log.
For `A40G`, the binding fitness was -1.27 natural log.
With `A29Y` the binding fitness was -1.23 natural log.
With `S47W` the binding fitness was -1.16 natural log.
The binding fitness of `M51E` is reported as -0.602 natural log.
`L31G` has a binding fitness of -1.47 natural log.
For `K34R`, the binding fitness was -0.263 natural log.
With `E54T` the binding fitness was -1.11 natural log.
`K39D` has a binding fitness of -1.44 natural log.
For `L31M`, the binding fitness was -1.26 natural log.
`Q55E` gave a binding fitness of -1.02 natural log.
With `S43P` the binding fitness was -1.45 natural log.
`A49W` gave a binding fitness of -1.36 natural log.
The binding fitness of `T48R` is reported as -0.662 natural log.
With `V35N` the binding fitness was -1.18 natural log.
For `E32S`, the binding fitness was -1.22 natural log.
For `S47T`, the binding fitness was -0.66 natural log.
For `E44L`, the binding fitness was -0.94 natural log.

Sample 3
Target: CCND2, cyclin fold, Cln2 fusion (human)
Method: yeast growth competition, sequencing
Matrix: yeast
Setting: weak parent motif
Relative to: not given
Reading: higher = stronger binding
Parent: SLBP docking peptide (human); ARYKRKLLINDFG; partner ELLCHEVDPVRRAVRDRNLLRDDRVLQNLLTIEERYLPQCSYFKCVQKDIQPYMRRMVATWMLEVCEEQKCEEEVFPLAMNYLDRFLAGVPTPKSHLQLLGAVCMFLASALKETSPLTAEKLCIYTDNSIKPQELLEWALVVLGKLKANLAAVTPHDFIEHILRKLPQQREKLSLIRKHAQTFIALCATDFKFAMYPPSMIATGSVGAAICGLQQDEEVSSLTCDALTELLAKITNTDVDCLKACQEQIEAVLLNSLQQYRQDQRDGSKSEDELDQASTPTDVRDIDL
`L8N` — result for “normalised enrichment score”: 0.302.
For `A1Y`, “normalised enrichment score” read 0.142.
`R5C`: “normalised enrichment score” 0.218.
`R5K L8F` — result for “normalised enrichment score”: -0.123.
`A1S`: “normalised enrichment score” 0.321.
Under “normalised enrichment score”, `A1T` is recorded as 0.807.
For `I9V`, “normalised enrichment score” read -0.134.
`L7Y`: “normalised enrichment score” 0.283.
For `K4Y`, “normalised enrichment score” read -0.226.
`N10H`: “normalised enrichment score” -0.156.
Under “normalised enrichment score”, `I9R` is recorded as -0.00743.
`L8G`: “normalised enrichment score” 0.168.
`D11S` — result for “normalised enrichment score”: 0.0619.
For `L7P`, “normalised enrichment score” read 0.329.
Under “normalised enrichment score”, `R2I` is recorded as 0.102.
For `Y3C`, “normalised enrichment score” read 0.304.
Under “normalised enrichment score”, `Y3E` is recorded as 0.134.
`L7A`: “normalised enrichment score” 0.0146.
Under “normalised enrichment score”, `R5N` is recorded as 0.315.
Under “normalised enrichment score”, `I9W` is recorded as -0.278.
For `F12I`, “normalised enrichment score” read 0.0546.
`N10F` — result for “normalised enrichment score”: 0.0706.
Under “normalised enrichment score”, `F12G` is recorded as 0.288.
Under “normalised enrichment score”, `L8Y` is recorded as 0.117.
`L8S` — result for “normalised enrichment score”: 0.0966.

Sample 4
Target: CRIPT, C-terminal peptide
Method: DHFR complementation, deep sequencing
Matrix: yeast
Setting: single substitutions, model-inferred values
Relative to: wild type
Reading: higher = weaker binding
Parent: ERBIN, PDZ domain 1 (human); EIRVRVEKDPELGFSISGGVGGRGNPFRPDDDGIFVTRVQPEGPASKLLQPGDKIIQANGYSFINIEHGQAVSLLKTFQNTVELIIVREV; partner TKNYKQTSV
For `R23F`, “binding free energy change” read -0.494 kcal/mol.
`S62G` — result for “binding free energy change”: -0.00666 kcal/mol.
For `R88H`, “binding free energy change” read 0.305 kcal/mol.
For `E7T`, “binding free energy change” read -0.123 kcal/mol.
`E42N` — result for “binding free energy change”: 0.0803 kcal/mol.
For `K8C`, “binding free energy change” read 0.945 kcal/mol.
For `E83N`, “binding free energy change” read 0.24 kcal/mol.
`T77G` — result for “binding free energy change”: -0.201 kcal/mol.
Under “binding free energy change”, `G52E` is recorded as 0.309 kcal/mol.
For `E67Y`, “binding free energy change” read 0.308 kcal/mol.
`E83A` — result for “binding free energy change”: 0.0259 kcal/mol.
`L84W`: “binding free energy change” 1.19 kcal/mol.
For `V36K`, “binding free energy change” read 0.819 kcal/mol.
`K54F`: “binding free energy change” 0.764 kcal/mol.
Under “binding free energy change”, `V82M` is recorded as 1.55 kcal/mol.
`S46Y`: “binding free energy change” 0.0204 kcal/mol.
Under “binding free energy change”, `R23H` is recorded as -0.455 kcal/mol.
`D53M`: “binding free energy change” 0.249 kcal/mol.
`P51Q` — result for “binding free energy change”: 0.235 kcal/mol.

Sample 5
Target: Sal-like protein 4, full length isoform A (SALL4, Homo sapiens, UniProt Q9UJQ4, residues 1-1053)
UniProt Q9UJQ4, sequence (whole entry, looked up): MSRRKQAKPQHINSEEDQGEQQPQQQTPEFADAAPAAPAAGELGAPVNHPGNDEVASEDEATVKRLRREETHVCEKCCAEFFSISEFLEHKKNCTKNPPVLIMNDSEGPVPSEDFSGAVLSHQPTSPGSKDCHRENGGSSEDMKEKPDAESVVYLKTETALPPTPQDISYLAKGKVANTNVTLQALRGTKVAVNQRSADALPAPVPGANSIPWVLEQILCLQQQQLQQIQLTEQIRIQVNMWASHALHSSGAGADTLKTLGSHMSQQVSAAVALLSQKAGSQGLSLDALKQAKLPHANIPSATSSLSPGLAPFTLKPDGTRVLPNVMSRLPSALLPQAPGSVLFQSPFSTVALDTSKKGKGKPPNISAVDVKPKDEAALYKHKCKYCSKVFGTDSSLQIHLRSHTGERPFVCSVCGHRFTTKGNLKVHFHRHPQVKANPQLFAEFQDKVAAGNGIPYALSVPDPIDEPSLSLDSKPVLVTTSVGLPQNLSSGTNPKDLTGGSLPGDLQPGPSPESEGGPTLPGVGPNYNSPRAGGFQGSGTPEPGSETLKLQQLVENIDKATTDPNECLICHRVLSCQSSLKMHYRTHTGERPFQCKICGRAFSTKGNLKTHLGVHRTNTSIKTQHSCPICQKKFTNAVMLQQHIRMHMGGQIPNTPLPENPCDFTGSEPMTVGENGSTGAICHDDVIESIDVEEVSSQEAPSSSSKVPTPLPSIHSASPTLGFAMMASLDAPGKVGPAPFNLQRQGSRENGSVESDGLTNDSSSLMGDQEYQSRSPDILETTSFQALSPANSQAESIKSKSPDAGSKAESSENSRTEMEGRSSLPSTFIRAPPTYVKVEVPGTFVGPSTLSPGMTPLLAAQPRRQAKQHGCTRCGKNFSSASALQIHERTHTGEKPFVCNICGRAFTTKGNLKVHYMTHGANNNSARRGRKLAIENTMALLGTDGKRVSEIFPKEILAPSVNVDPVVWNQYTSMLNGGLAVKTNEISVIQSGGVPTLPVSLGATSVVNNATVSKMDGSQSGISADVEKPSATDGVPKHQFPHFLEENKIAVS
Method: universal PBM
Molecule type: double-stranded DNA, one strand shown
Matrix: in vitro
Concentration: 600 nM
Setting: 8-mer, flanks averaged, mean of replicates
Reading: higher = stronger binding
`GTAGCTCA` gave an E-score of -0.0357.
`AAGGCCTG` has an E-score of -0.241.
With `AGGGTACG` the E-score was -0.0785.
For `ATAATTGA`, the E-score was 0.362.
`AGGCCCTC` has an E-score of -0.309.
`ATTAAGCA` gave an E-score of 0.206.
`AAGGGGTC` has an E-score of -0.174.
With `CACCGTAG` the E-score was -0.113.
With `CAGTTTTA` the E-score was 0.0938.
With `CGTCTTGA` the E-score was 0.031.
For `GCTAACCA`, the E-score was -0.194.
With `ATTTGACC` the E-score was -0.028.
`CTAGGTAA` has an E-score of 0.0815.
For `AATACTCA`, the E-score was 0.263.
For `CAATATAC`, the E-score was 0.279.
For `AATAGTGC`, the E-score was 0.0636.
`CCTAACCA` has an E-score of 0.021.

Sample 6
Target: ABI1, truncated, D143A, DHFR fusion (Arabidopsis thaliana, UniProt P49597)
Method: DHFR PCA, dose-response
Matrix: yeast
Setting: Hill fit, mean, not affinity
Added: (+)-ABA, dose series
Reading: lower = more sensitive
Parent: PYL1, truncated, DHFR fusion (Arabidopsis thaliana, UniProt Q8VZS8); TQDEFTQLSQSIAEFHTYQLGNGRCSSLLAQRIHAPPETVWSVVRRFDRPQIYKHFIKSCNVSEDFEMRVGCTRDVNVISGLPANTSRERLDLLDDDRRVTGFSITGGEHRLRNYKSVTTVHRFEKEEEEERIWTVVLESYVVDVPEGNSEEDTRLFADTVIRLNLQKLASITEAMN
For `I33C`, the ABA EC50 was 7.51 µM.
`C25M` gave an ABA EC50 of 16.5 µM.
`K116Q` has an ABA EC50 of 6.25 µM.
`M176R` has an ABA EC50 of 2.51 µM.
`K116E` gave an ABA EC50 of 48.5 µM.
`K126E` has an ABA EC50 of 2.44 µM.
For `Q10N`, the ABA EC50 was 4.1 µM.
The ABA EC50 of `E174R` is reported as 21.5 µM.
With `R163N` the ABA EC50 was 10.5 µM.
`L156C` gave an ABA EC50 of 0.681 µM.
`V43Q` gave an ABA EC50 of 56.1 µM.
For `L29M`, the ABA EC50 was 5.35 µM.
With `V143Q` the ABA EC50 was 79.5 µM.
With `D95R` the ABA EC50 was 106 µM.
For `S26G`, the ABA EC50 was 4.63 µM.
For `A175S`, the ABA EC50 was 1.91 µM.
With `G23P` the ABA EC50 was 54.7 µM.
`V43I` has an ABA EC50 of 4.06 µM.

Some of these lines once more (sample 6):
With `R163N` the ABA EC50 was 10.5 µM.
For `A175S`, the ABA EC50 was 1.91 µM.
The ABA EC50 of `E174R` is reported as 21.5 µM.
`K116Q` has an ABA EC50 of 6.25 µM.
`C25M` gave an ABA EC50 of 16.5 µM.
With `G23P` the ABA EC50 was 54.7 µM.
With `V143Q` the ABA EC50 was 79.5 µM.
For `I33C`, the ABA EC50 was 7.51 µM.
